Measurements from different studies.
Each numbered part is a random draw from the data of one study; scales do not carry over between parts.

Sample 1 — method: RNA Bind-n-Seq; molecule type: RNA; matrix: in vitro; concentration: 365 nM; reference: no-protein control; direction: higher = stronger binding
Target: RNA binding protein fox-1 homolog 2, RRM domain, GST-SBP tag (RBFOX2, Homo sapiens, UniProt O43251-10, residues 100-194)
Setting: natural RNA segment, single round, ends assumed
Shared flanks, not repeated: GGGAGUUCUACAGUCCGACGAUC … UGGAAUUCUCGGGUGCCAA
Residues (chain): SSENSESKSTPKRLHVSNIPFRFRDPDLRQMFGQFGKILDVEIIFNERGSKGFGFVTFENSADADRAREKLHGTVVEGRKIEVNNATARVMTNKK
`AAUGUUAGAGCACAGUACAUAAUACACUUGCCCUGCUCCCUCUCCCCCUUACCCCACAACGUGCAACUGACACUCCCACCCAGUCUCUGCUCCACCUUUCAGCCCACGUC` — result for “RBNS enrichment (R)”: 0.858.
Under “RBNS enrichment (R)”, `UGUCACACAACACUGAUGUGACUUUUAUAUGCUUUUUCUCAGAUCUGGUUUCUAAGAGUUUUGGGGGGCGGGGCUGUCACCACGUGCAGUAUCUCAAGAUAUUCAGGUGG` is recorded as 0.304.
`AGAUGCACCACCCAUGGAGAGGUUUGUCAACACAAAGACAUGGAAGGUUAGAGGUUUGUCAACAAAAAGACAUGGAAGGUUAGGUUUGUCAACACAAAGACAUGGAAGAU`: “RBNS enrichment (R)” 1.28.
For `GUAUACCCAUAAAGAAUGCUCAUAUUAAUGUACUUAAAUUACACAUGUAGAGCAUAUCUGUUAUAUGUUUAUGUAACUAUCAAAUGGUUAUUUGUUACUAAAGCUAUAUU`, “RBNS enrichment (R)” read 0.373.
`CAGCCUAGGAGAUGCCACACAUGCACAUGUCUGUUGCUUCUGUUGGCCUGAACCUACAACUGCCAAAGAACCCAGCAACAAACCUCCCAGCUUGGAGCUUUAGUUUUUUU` — result for “RBNS enrichment (R)”: 0.329.
Under “RBNS enrichment (R)”, `AGGAAAAGAUUAAAAUAGUAAAAUAAAAGUAUUUAAACUUUCCUGAUAUUUAUGUACAUAUUAAGAUAAAUGUCAUGUGUAAGAUAACUGAUAAAUAUUGGAACUUUGCU` is recorded as 0.516.
Under “RBNS enrichment (R)”, `AAGGAAUAAAUCCAGUGAAGAAUGGUUGUUGAUCAUCUAUCCAAAGUCCCAGGUUUAAAAAGCAAAGCAAAACAAAAAUAACCACGUAUUCUCUAAAGGGCUCUUGUCUG` is recorded as 0.711.
`GUUCUUGAAAUGCAAGGUAUUUGGGGGUUAUUUAUUAUGAAAGCAACAUACUCUUAAUGUUGAUUUUACAAUAUGAAGAGAUUAUUUAAAAUAAAUUAUUGUUUUCAUUG` — result for “RBNS enrichment (R)”: 0.948.
For `GUUUAUGACAAUAUUGAUAAGCGGCCUCGACUAGACUUGGCUCCGGCUCUUUCCUAGGCCGCACAAGCUUCUGCAGCAAUCUCAGAGACUGAAACAGCUGAGAGCCUAUU`, “RBNS enrichment (R)” read 0.372.
For `UGGGUUUUUGCGAGUGCUUUGUUUACUAAGGACUUUGGGGAGGAACCAUGCUAAGCCAUGACCAGUGAGGAGAAGCAACAGAGCCUGUCUGUCCCCAUGAGCGGAGUCUG`, “RBNS enrichment (R)” read 0.763.
For `ACAAGAACCUUUGCUUUCCUUAGACUUGUUCUGCAUUUUAUUUUUUAUUUCUCACCAAAAUAAAAGCAUUUAUGAGAAUUAUAAGUAAAGCUUUCUGUAUUUCAGAGAGA`, “RBNS enrichment (R)” read 0.413.
For `UCUAUCCCCUGGAACUUAUGCAUUACAUGUAUUCAGAUAGUAUCUCAACGAUUAUAGAGAGCCUUUUCUGUCCAAGCUGUCUCAUUCCAGUCCUCUAACACCCCUUGAGA`, “RBNS enrichment (R)” read 0.476.

Sample 2 — method: RNA Bind-n-Seq; molecule type: RNA; matrix: in vitro; concentration: 200 nM; setting: whole 134-nt RNA, ends assumed; together with: 150 mM LiCl; reference: input library; direction: higher = stronger binding; all molecules: 7-deaza-guanosine replaces G
Target: Ras GTPase-activating protein-binding protein 1, full length (G3BP1, Homo sapiens, UniProt Q13283)
Chain of UniProt Q13283 (whole entry, looked up): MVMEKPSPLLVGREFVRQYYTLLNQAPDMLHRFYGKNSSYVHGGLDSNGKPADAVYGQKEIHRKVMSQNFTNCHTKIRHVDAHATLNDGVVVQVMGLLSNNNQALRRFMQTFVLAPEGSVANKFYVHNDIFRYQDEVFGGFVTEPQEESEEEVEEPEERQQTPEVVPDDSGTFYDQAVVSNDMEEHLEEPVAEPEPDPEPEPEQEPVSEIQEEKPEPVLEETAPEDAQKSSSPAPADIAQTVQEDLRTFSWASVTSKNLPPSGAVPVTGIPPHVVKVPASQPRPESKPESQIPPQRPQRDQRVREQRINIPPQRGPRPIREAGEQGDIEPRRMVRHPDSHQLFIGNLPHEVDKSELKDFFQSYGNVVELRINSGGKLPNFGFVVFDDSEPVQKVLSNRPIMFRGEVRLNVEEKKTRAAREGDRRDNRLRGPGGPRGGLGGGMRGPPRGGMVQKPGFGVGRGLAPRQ
Shared flanks, not repeated: GGGAGUUCUACAGUCCGACGAUC … UGGAAUUCUCGGGUGUCAAGG
With `CACAGACAACACGCACCCACACAGACACAGAGGGAAGGGGUUGGGAUGGGGACAGGGUGCACAGCAGGGAGGGGUAGGACCCCAGCCCCU` the log2 enrichment was 0.386.
With `CUUAUGCCUUCCCCACUGGUAUUGAGGGUUUUGAUAAUAAAUUGGUAGGAAAAAAAAGUACCUCCUAGAAGGAAGCCUUCCCCACCAUUU` the log2 enrichment was 0.711.
With `UCCUCAAGUCCUGUGCUACACAUCGUAUGUACCGAAUCGGGAGGAGGGAGGAAAGUAUUAUGUUACGCCGUUCGGAUCUGCACUUCCAGC` the log2 enrichment was -1.26.
With `ACCAUGCAGGUGGGCAUCUAAAGGAAGUGGGGCAAGGGGGGGAUAGGGAGGGGGGUAACACUUUGGGAACAGGUGGUCCCAGGUCGUUUC` the log2 enrichment was 0.263.
`CACAGGCAACACGCACCCACACAGACACAGAGGGAAGGGGUUGGGAUGGGGACAGGGUGCACAGCAGGGCGGGGUAGGACCCCAGCCCCU` gave a log2 enrichment of 0.258.
For `CUGUGCUACACAUCGUAUGUACCGAAUCGGGGUUUUUUUGGGGUUUUUUUGGGGUUUGGGGAAAGUAUUAUGUUACGCCGUUCGGAUCUG`, the log2 enrichment was 1.38.
For `GUCCUGUGCUACACAUCGUAUGUACCGAAUCGGGAAAAAAAGGGAAAAAGGGUUUGGGAAAGUAUUAUGUUACGCCGUUCGGAUCUGCAC`, the log2 enrichment was -1.95.
With `UUACCGACACCGUAGAACAGAGCAAGAGGAGGAUGAAGAGCUAUUAACAGAAAGCUCCAAAGCAACCAAUGUUUGCACUCGAUUUGAAGA` the log2 enrichment was -0.151.
With `GCAGGAAGUAAAAACAAAUGGAAAUGCUUCGGAUAGUGGCAGGGGUGGGGGUUGCUAAGGAAAGGGUGGGAAAAGAGUGGGUAAAGAGUU` the log2 enrichment was 0.226.
`UAACUUUAGAGGAGGAUCCGAUGGAUAUGGCAGUGGACGUGGAUUUGGGGAUGGCUAUAAUGGGUAUGGAGGAGGACCUGGAGGUGGCAA` has a log2 enrichment of 0.0128.
The log2 enrichment of `CACAGACAACGCGCACCCACACAGACACAGAGGGAAGGGGUUGGGAUGGGGACAGGGUGCACAGCAGGGCGGGGUAGGACCCCAGCCCCU` is reported as -0.622.

Sample 3 — method: universal PBM; molecule type: double-stranded DNA, one strand shown; matrix: in vitro; concentration: not given; direction: higher = stronger binding
Target: Sal-like protein 4, full length isoform B (SALL4, Homo sapiens, UniProt Q9UJQ4-2, residues 1-616)
Setting: 8-mer, flanks averaged, mean of replicates
With `AGGGATGA` the E-score was -0.0287.
`ATGCCAAG` gave an E-score of 0.0744.
`AACAATCG` gave an E-score of 0.00789.
For `AGTACAAC`, the E-score was 0.128.
`CCGACGAA` has an E-score of -0.0514.
`AACGGGCT` gave an E-score of -0.205.
With `AGCCTTTC` the E-score was -0.251.
With `AGTTGATG` the E-score was 0.171.
With `GATTGTAC` the E-score was -0.027.
`GGCCAGTA` gave an E-score of -0.138.
With `ACAAGCTA` the E-score was 0.0684.
With `AATTAAAC` the E-score was 0.247.
With `AGGGGATG` the E-score was -0.132.
`ATTTACAA` gave an E-score of 0.325.
`CCTCCGAC` has an E-score of -0.281.
For `AGTGATAC`, the E-score was 0.0846.
The E-score of `ACCCGTGC` is reported as -0.236.
`CAGACCGC` has an E-score of -0.252.
`GCACGAGA` gave an E-score of -0.0805.
`AGGCTGAT` has an E-score of -0.0258.
`ACGTGGCT` gave an E-score of -0.12.
The E-score of `ATCAACTC` is reported as 0.0157.
The E-score of `ATTGAATG` is reported as 0.241.
`TCCGGAGA` has an E-score of -0.174.
`AAAAGCCT` has an E-score of -0.0507.

Sample 4 — method: aptamer microarray, sandwich; molecule type: DNA with 2'F-ANA; matrix: in vitro; concentration: 200 nM; together with: Cy3 exosite-II aptamer, 400 nM; direction: higher = stronger binding; strand: GGTTGGTGTGGTTGG
Target: Prothrombin, mature alpha-thrombin (F2, Homo sapiens, UniProt P00734)
Setting: whole 15-mer aptamer, many near background
Under “mean fluorescence intensity”, `2'F-ANA at 1 3 8 9 12 13` is recorded as 434 a.u.
`2'F-ANA at 1 3 4 5 6 7 12 13 14`: “mean fluorescence intensity” 47.4 a.u.
`2'F-ANA at 4 5 6 7 8 9 10 11 14 15`: “mean fluorescence intensity” 46.9 a.u.
`2'F-ANA at 1 6 7 8 9 11 13 14`: “mean fluorescence intensity” 55.7 a.u.
`2'F-ANA at 3 4` — result for “mean fluorescence intensity”: 858 a.u.
`2'F-ANA at 3 6 8 10 11 12`: “mean fluorescence intensity” 460 a.u.
`2'F-ANA at 1 3 9 11 12 14 15` — result for “mean fluorescence intensity”: 102 a.u.
`2'F-ANA at 1 2 3 4 5 6 7 9 14 15`: “mean fluorescence intensity” 46.3 a.u.
`2'F-ANA at 2 3 5 7 15`: “mean fluorescence intensity” 105 a.u.
`2'F-ANA at 1 2 3 4 7 8 11 12 13 14` — result for “mean fluorescence intensity”: 106 a.u.
Under “mean fluorescence intensity”, `2'F-ANA at 3 7 10 11 13 14 15` is recorded as 394 a.u.
Under “mean fluorescence intensity”, `2'F-ANA at 2 5 6 7 8 9 14` is recorded as 136 a.u.
For `2'F-ANA at 1 9 10 11 13 14`, “mean fluorescence intensity” read 94.8 a.u.
For `2'F-ANA at 2 3 6 9 10 12 13 14`, “mean fluorescence intensity” read 247 a.u.
`2'F-ANA at 1 2 6 11 12 14` — result for “mean fluorescence intensity”: 56.7 a.u.
For `2'F-ANA at 2 3 4 5 6 7 9 10 12 14 15`, “mean fluorescence intensity” read 49.2 a.u.
`2'F-ANA at 3 5 9 10 11` — result for “mean fluorescence intensity”: 54.6 a.u.
Under “mean fluorescence intensity”, `2'F-ANA at 3 5 9 11 12 15` is recorded as 182 a.u.
Under “mean fluorescence intensity”, `2'F-ANA at 1 4 7` is recorded as 148 a.u.
For `2'F-ANA at 2 4 5 6 7 9 10 11 13 14`, “mean fluorescence intensity” read 52.8 a.u.
Under “mean fluorescence intensity”, `2'F-ANA at 2 5 7 10 11 13 14 15` is recorded as 50.1 a.u.
For `2'F-ANA at 4 5 6 7 8 10`, “mean fluorescence intensity” read 48.3 a.u.
Under “mean fluorescence intensity”, `2'F-ANA at 1 5 7 10 12 14` is recorded as 43.9 a.u.
`2'F-ANA at 1 2 4 5 7 8 9 11 13 14`: “mean fluorescence intensity” 83.9 a.u.
For `2'F-ANA at 1 2 3 7 8 11 12 15`, “mean fluorescence intensity” read 476 a.u.

Repeated from above (sample 2):
With `CUUAUGCCUUCCCCACUGGUAUUGAGGGUUUUGAUAAUAAAUUGGUAGGAAAAAAAAGUACCUCCUAGAAGGAAGCCUUCCCCACCAUUU` the log2 enrichment was 0.711.
With `UCCUCAAGUCCUGUGCUACACAUCGUAUGUACCGAAUCGGGAGGAGGGAGGAAAGUAUUAUGUUACGCCGUUCGGAUCUGCACUUCCAGC` the log2 enrichment was -1.26.
With `ACCAUGCAGGUGGGCAUCUAAAGGAAGUGGGGCAAGGGGGGGAUAGGGAGGGGGGUAACACUUUGGGAACAGGUGGUCCCAGGUCGUUUC` the log2 enrichment was 0.263.
`CACAGGCAACACGCACCCACACAGACACAGAGGGAAGGGGUUGGGAUGGGGACAGGGUGCACAGCAGGGCGGGGUAGGACCCCAGCCCCU` gave a log2 enrichment of 0.258.
For `CUGUGCUACACAUCGUAUGUACCGAAUCGGGGUUUUUUUGGGGUUUUUUUGGGGUUUGGGGAAAGUAUUAUGUUACGCCGUUCGGAUCUG`, the log2 enrichment was 1.38.
For `GUCCUGUGCUACACAUCGUAUGUACCGAAUCGGGAAAAAAAGGGAAAAAGGGUUUGGGAAAGUAUUAUGUUACGCCGUUCGGAUCUGCAC`, the log2 enrichment was -1.95.
With `UUACCGACACCGUAGAACAGAGCAAGAGGAGGAUGAAGAGCUAUUAACAGAAAGCUCCAAAGCAACCAAUGUUUGCACUCGAUUUGAAGA` the log2 enrichment was -0.151.
With `GCAGGAAGUAAAAACAAAUGGAAAUGCUUCGGAUAGUGGCAGGGGUGGGGGUUGCUAAGGAAAGGGUGGGAAAAGAGUGGGUAAAGAGUU` the log2 enrichment was 0.226.
`UAACUUUAGAGGAGGAUCCGAUGGAUAUGGCAGUGGACGUGGAUUUGGGGAUGGCUAUAAUGGGUAUGGAGGAGGACCUGGAGGUGGCAA` has a log2 enrichment of 0.0128.
The log2 enrichment of `CACAGACAACGCGCACCCACACAGACACAGAGGGAAGGGGUUGGGAUGGGGACAGGGUGCACAGCAGGGCGGGGUAGGACCCCAGCCCCU` is reported as -0.622.
